Published values pooled from the literature.
Numbered parts are unrelated; each lists some results of a single study. Positions count from the first letter of the parent shown.

Series 1 — target: CCNE1, cyclin fold, Cln2 fusion (human); technique: yeast growth competition, sequencing; sample: yeast; setting: weak parent motif; relative to: not given; reading: higher = stronger binding
Starting sequence: WEE1 docking peptide (human); HKTFRKLRLFDTP
Change | normalised enrichment score
T12F | 1.36
L7Y | 0.581
T3W | 0.86
D11R | 0.322
R5K | 0.357
K6M | -0.259
F4I | 0.583
T3S | 0.0417

Series 2 — technique: protein-binding microarray; form: double-stranded DNA, one strand shown; sample: in vitro; tested at: 250 nM; setting: 60-bp whole probe; with: salmon DNA 0.4 mg/ml; relative to: random background probes; reading: higher = stronger binding; all sequences stand within: GCCTAGCAC … GTCTTGATTCGCTTGACGCTGCTG
Target: Interferon regulatory factor 7, full length, phosphomimetic (IRF7, Homo sapiens, UniProt Q92985, residues 1-503, S101K/S471D/S472D/S475D/S476D/S477D/S483D/S484D/S487D)
Chain of UniProt Q92985 (whole entry, unmodified, looked up): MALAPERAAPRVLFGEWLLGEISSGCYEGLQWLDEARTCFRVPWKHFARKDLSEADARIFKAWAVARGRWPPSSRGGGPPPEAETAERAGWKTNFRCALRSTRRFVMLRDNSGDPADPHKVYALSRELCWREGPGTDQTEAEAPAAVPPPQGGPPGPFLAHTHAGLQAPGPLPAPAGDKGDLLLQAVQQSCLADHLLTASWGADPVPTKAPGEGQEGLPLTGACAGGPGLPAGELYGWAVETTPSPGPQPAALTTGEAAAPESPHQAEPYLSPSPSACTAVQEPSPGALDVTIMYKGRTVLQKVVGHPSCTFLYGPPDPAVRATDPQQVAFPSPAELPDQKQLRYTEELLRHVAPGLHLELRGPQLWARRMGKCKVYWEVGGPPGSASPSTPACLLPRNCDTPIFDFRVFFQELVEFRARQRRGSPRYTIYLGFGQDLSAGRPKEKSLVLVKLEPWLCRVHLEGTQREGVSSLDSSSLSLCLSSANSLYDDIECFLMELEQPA
Strand | log fluorescence [z-score]
TTAGGTTCCCTTTCCCTTTAGTGCTAG | 3.55
GACGATATAAGTCTCGAGACGTGCTAG | 0.375
CACGATTTCGGGTATCGAGACGTGCTA | 1.21
TAAAGCATTACTTTAGGTTCGTGCTAG | 0.0564
TTAGGTCTCCTTTTCGTTTAGTGCTAG | 2.44
TAAGGTATCGGTTTCGGTTAGTGCTAG | 11.1
GACGGTATCGACTATCGGGTCGTGCTA | 0.0202
TTAGGACTGGGGTTTCCGTTAGTGCTA | 0.695

Series 3 — technique: protein-binding microarray; form: double-stranded DNA, one strand shown; sample: in vitro; tested at: not given; reading: higher = stronger binding
Target: Max-binding protein MNT, bHLH-zipper, MAX partner unstated (MNT, Homo sapiens, UniProt Q99583, residues 220-300)
Setting: k-mer, scored over probes, only values ≥0.25
Construct (chain): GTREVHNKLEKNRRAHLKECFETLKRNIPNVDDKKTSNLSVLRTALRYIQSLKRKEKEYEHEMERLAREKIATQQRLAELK
Strand | E-score
CGACGTGA | 0.253
ATGCGGTA | 0.327
CCCACGCA | 0.294
CACGTTCC | 0.406
CATGGCCC | 0.31
CCGGCACG | 0.38
CATGTGAC | 0.476
CCCGTGCA | 0.309

Mixed results
Structure (SMILES) | organism | assay | setting | quantity | value
C[C@]12CCC(=O)C=C1CC[C@@H]1[C@@H]2[C@@H](O)C[C@@]2(C)[C@H]1CC[C@]2(O)C(=O)CO | Sarcocystis neurona | parasite growth | 10 µM, 96 h, first screen | inhibition | 16.8%

A few entries again (series 1):
Change | normalised enrichment score
D11R | 0.322
R5K | 0.357
K6M | -0.259
